Experimental data pooled from the literature.
Every numbered part comes from another study and shows a few of its results, in no order. Positions count from the first letter of the parent shown.
Sequence of UniProt Q8RYC8 (whole entry, looked up): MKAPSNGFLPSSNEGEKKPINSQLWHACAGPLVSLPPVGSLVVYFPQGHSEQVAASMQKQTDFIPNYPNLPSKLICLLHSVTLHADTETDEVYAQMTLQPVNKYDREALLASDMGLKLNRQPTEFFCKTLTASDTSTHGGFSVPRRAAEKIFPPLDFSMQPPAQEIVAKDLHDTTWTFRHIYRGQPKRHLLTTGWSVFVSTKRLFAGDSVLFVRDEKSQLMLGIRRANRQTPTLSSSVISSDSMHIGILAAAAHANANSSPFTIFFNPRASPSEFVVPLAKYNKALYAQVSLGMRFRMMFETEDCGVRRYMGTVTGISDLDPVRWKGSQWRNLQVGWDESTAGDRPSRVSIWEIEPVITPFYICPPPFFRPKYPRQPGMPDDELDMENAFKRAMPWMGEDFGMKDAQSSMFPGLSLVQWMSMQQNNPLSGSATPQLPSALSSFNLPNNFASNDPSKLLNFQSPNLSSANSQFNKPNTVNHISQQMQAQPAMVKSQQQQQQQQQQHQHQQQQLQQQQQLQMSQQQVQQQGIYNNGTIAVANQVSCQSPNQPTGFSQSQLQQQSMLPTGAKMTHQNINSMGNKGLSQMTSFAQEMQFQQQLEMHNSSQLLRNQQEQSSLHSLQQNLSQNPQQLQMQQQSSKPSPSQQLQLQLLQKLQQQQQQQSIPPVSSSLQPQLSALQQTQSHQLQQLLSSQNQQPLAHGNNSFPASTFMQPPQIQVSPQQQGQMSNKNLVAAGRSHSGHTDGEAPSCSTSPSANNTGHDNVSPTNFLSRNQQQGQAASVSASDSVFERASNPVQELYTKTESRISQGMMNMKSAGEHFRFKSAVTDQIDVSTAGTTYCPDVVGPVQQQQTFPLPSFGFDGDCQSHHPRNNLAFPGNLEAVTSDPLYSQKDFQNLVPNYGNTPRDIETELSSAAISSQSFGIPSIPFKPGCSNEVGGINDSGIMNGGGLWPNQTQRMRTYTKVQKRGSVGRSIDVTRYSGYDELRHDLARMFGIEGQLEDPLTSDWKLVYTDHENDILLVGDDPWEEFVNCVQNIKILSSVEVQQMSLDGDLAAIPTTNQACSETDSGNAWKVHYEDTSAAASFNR

Sample 1 — method: aptamer microarray, sandwich; form: DNA with 2'F-ANA; matrix: in vitro; tested at: 200 nM; with: Cy3 exosite-II aptamer, 400 nM; reading: higher = stronger binding; oligonucleotide: GGTTGGTGTGGTTGG
Target: Prothrombin, mature alpha-thrombin (F2, Homo sapiens, UniProt P00734)
Notes: whole 15-mer aptamer, many near background
| Modification | mean fluorescence intensity [a.u.] |
| --- | --- |
| 2'F-ANA at 1 4 5 7 8 9 12 13 14 | 44.6 |
| 2'F-ANA at 1 2 4 10 11 13 | 58.8 |
| 2'F-ANA at 1 4 5 6 7 9 10 | 50.8 |
| 2'F-ANA at 1 3 4 5 6 8 9 13 14 15 | 59 |
| 2'F-ANA at 1 6 7 8 9 10 14 | 49.2 |
| 2'F-ANA at 2 6 9 10 11 13 15 | 92.7 |
| 2'F-ANA at 1 2 4 5 6 7 9 12 | 138 |
| 2'F-ANA at 2 3 4 6 7 11 12 13 14 | 247 |
| 2'F-ANA at 3 4 6 7 8 11 15 | 560 |
| 2'F-ANA at 1 3 5 8 10 11 12 | 47.9 |
| 2'F-ANA at 1 4 5 6 7 10 13 | 46.7 |
| 2'F-ANA at 5 6 10 12 13 | 152 |
| 2'F-ANA at 2 3 5 7 10 15 | 51 |
| 2'F-ANA at 1 2 5 13 | 47.3 |
| 2'F-ANA at 1 4 7 8 10 12 13 | 59.6 |
| 2'F-ANA at 2 3 9 11 12 13 14 15 | 369 |
| 2'F-ANA at 2 4 5 7 10 14 15 | 45.7 |
| 2'F-ANA at 3 5 7 11 12 15 | 171 |
| 2'F-ANA at 4 6 7 8 10 11 12 14 | 60.3 |
| 2'F-ANA at 1 3 5 7 8 9 10 | 68.7 |
| 2'F-ANA at 4 7 8 9 10 11 12 14 | 64.4 |

Sample 2 — target: CCNE2, cyclin fold, Cln2 fusion (human); method: yeast growth competition, sequencing; matrix: yeast; notes: weak parent motif; reference: not given; reading: higher = stronger binding
Starting sequence: CUX1 docking peptide (human); SRIRRELFIEEIQ
| Substitution | normalised enrichment score |
| --- | --- |
| SRARRELFIEEIQ [I3A] | 1.08 |
| SRIRRELFIEEAQ [I12A] | -0.42 |
| SRIRRELLIEEIQ [F8L] | 0.168 |
| SRIRAELFIEEIQ [R5A] | 0.269 |
| SAIRRELFIEEIQ [R2A] | 1.15 |
| ARIRRELFIEEIQ [S1A] | 1.05 |
| SRIRRALFIEEIQ [E6A] | 1.75 |

Sample 3 — method: protein binding microarray; form: double-stranded DNA, one strand shown; matrix: in vitro; tested at: not given; reference: not given; reading: higher = stronger binding
Target: Histone acetyltransferase KAT6A, winged helix 1, GST fusion (KAT6A, Homo sapiens, UniProt Q92794, residues 1-85)
Notes: 8-mer, flanks averaged, mean of 2 arrays, mostly near background
Construct (chain): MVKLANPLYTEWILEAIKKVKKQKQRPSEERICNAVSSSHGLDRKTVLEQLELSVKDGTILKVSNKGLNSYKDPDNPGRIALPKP
| Oligonucleotide | E-score |
| --- | --- |
| AACCGGCT | 0.215 |
| GAGATATA | -0.00042 |
| TAATATAA | -0.00931 |
| CTTTCATA | -0.0471 |
| CGGTAAGC | 0.265 |
| CAGGTCAG | -0.194 |
| AGTCCATA | -0.0946 |
| ACAAGGTA | -0.084 |
| ACGGCTTA | 0.345 |
| CAGTTAAG | -0.107 |
| CGCCCACG | 0.3 |
| TCCAGGCA | -0.224 |
| GATAGGCA | -0.249 |
| CCGAGTCC | 0.178 |
| TAAGGAAA | -0.233 |
| AGCCCCCA | -0.198 |

Sample 4 — method: DHFR PCA, deep sequencing; matrix: yeast; with: (+)-ABA 1.4 µM; reference: wild-type fitted maximum; reading: higher = stronger binding
Target: ABI1, truncated, D143A, DHFR fusion (Arabidopsis thaliana)
Notes: methotrexate growth selection, single substitutions
Starting sequence: PYL1, truncated, DHFR fusion (Arabidopsis thaliana); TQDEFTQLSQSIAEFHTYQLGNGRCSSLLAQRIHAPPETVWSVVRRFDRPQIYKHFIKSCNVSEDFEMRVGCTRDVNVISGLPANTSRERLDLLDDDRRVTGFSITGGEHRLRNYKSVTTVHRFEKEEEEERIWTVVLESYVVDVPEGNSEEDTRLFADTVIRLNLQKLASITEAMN
| Substitution | relative binding score [%] |
| --- | --- |
| K58F | 2.57 |
| I133M | 58.4 |
| Y115H | 11.9 |
| N149W | 5.27 |
| L138S | 2.83 |
| T119L | 36.9 |
| V100H | -0.563 |
| V62N | 4.89 |
| R155F | -32.8 |
| E147D | 55.2 |
| L8W | 44.3 |
| E128T | 60.8 |
| W41M | -1.86 |
| D153E | 69.6 |

Sample 5 — method: RNA Bind-n-Seq; form: RNA; matrix: in vitro; tested at: 200 nM; notes: whole 134-nt RNA, ends assumed; with: 150 mM KCl; reference: input library; reading: higher = stronger binding
Target: Fragile X messenger ribonucleoprotein 1, C-terminal low-complexity region (Fmr1, Mus musculus, UniProt P35922)
Constant ends, left off below: GGGAGUUCUACAGUCCGACGAUC … UGGAAUUCUCGGGUGUCAAGG
| Oligonucleotide | log2 enrichment |
| --- | --- |
| CAAGUCCUGUGCUACACAUCGUAUGUACCGAAUCGGAAAAGGGAAAAGGAAAAGGGAAAGUAUUAUGUUACGCCGUUCGGAUCUGCACUU | -0.702 |
| CCUGUGCUACACAUCGUAUGUACCGAAUCGGGGUUUUUUUGGGGAAAAAGGGGUUUGGGGAAAGUAUUAUGUUACGCCGUUCGGAUCUGC | 0.23 |
| AGUCCUGUGCUACACAUCGUAUGUACCGAAUCGGGCCCCGGGGCCCCGGGGCCCCGGGAAAGUAUUAUGUUACGCCGUUCGGAUCUGCAC | -0.0567 |
| AAGUCCUGUGCUACACAUCGUAUGUACCGAAUCGGUUUUGGGUUUUGGGGUUUUGGAAAGUAUUAUGUUACGCCGUUCGGAUCUGCACUU | -0.366 |
| UAACUAUAGAGGAGGAUCUGAUGGAUAUGGCAGUGGACGUGGAUUUGGGGAUGGCUAUAAUGGGUAUGGAGGAGGACCUGGAGGUGGCAA | 0.258 |
| GCAGGAAGUAAAAACAAAUGGAAAUGCUUCGGAGAGUGGCAGGGGUGGGGGUUGCUAAGGAAAGGGUGGGAUGGGAGUGGGUAAAGAGUU | 0.101 |
| CUCAAGUCCUGUGCUACACAUCGUAUGUACCGAAUCGGGGAGGGGAGGAGGGGAAAGUAUUAUGUUACGCCGUUCGGAUCUGCACUUCCA | 1.24 |
| GCAGGAAGUAAACACAAAUGGAAAUGCUUCGGAUAGUGGCAGGGGUGGGGGUUGCUAAGGAAAGGGUGGGAUGGGAGUGGGUAAAGAGUU | 0.364 |
| AAGUCCUGUGCUACACAUCGUAUGUACCGAAUCGGAAAAAGGUUUUUUUGGUUUGGAAAGUAUUAUGUUACGCCGUUCGGAUCUGCACUU | -1.35 |
| GUCCUGUGCUACACAUCGUAUGUACCGAAUCGGGGUUUGGGGUUUUUUUGGGGAGGGGAAAGUAUUAUGUUACGCCGUUCGGAUCUGCAC | 0.767 |
| CUGUGCUACACAUCGUAUGUACCGAAUCGGGGUUUUUUUGGGGUUUUUGGGGUUUUUGGGGAAAGUAUUAUGUUACGCCGUUCGGAUCUG | -0.166 |
| CAAGUCCUGUGCUACACAUCGUAUGUACCGAAUCGGAAAAGGGAAAAGGAAAAGGAAAGUAUUAUGUUACGCCGUUCGGAUCUGCACUUC | -0.617 |
| AAGUCCUGUGCUACACAUCGUAUGUACCGAAUCGGGAGGGUUUGGGUUUUUUUGGGAAAGUAUUAUGUUACGCCGUUCGGAUCUGCACUU | 0.604 |
| CACAGACAACACGCACCCACACAGACACAGAGGGAAGGGGUUGGGAUGGGGACAGGGGGCACAGCAGGGCGGGGUAGGACCCCAGCCCCU | 1.03 |

Sample 6 — method: universal PBM; form: double-stranded DNA, one strand shown; matrix: in vitro; tested at: not given; reading: higher = stronger binding
Target: Sal-like protein 4, full length isoform B (SALL4, Homo sapiens, UniProt Q9UJQ4-2, residues 1-616)
Notes: 8-mer, flanks averaged, mean of replicates
| Oligonucleotide | E-score |
| --- | --- |
| TGGCCCCA | -0.185 |
| GAATACTA | 0.245 |
| TTATTAAA | 0.451 |
| TAGTATCA | 0.244 |
| AGTCACAG | 0.019 |
| AATTCCCT | 0.0921 |
| GCAAGTTA | 0.0546 |
| CGGCGCGC | -0.291 |
| ACCAAATA | 0.29 |
| CGCTGGGC | -0.319 |
| GGATTGGA | -0.0435 |
| AGAACGTA | 0.0297 |
| CAGAGCAG | -0.0347 |
| CAGGTATG | -0.0107 |
| GCATTAAC | 0.0626 |
| AGTAGACT | 0.0312 |
| GAACATTA | 0.255 |
| CTCTCGTA | 0.0245 |
| CGCCGTCA | -0.203 |
| TACCTGCA | -0.0442 |
| GTCAGTCA | -0.118 |
| ATACCCAC | 0.107 |
| CCTGTTAC | 0.158 |
| CACATCCA | 0.0396 |
| TCTACAAA | 0.163 |

Sample 7 — target: FOSB, bZIP domain (human); method: DHFR protein complementation; matrix: yeast; reference: wild-type JUN-FOS pair; reading: higher = stronger binding
Notes: single substitutions, most at no-binding floor
Starting sequence: JUN, bZIP domain (human); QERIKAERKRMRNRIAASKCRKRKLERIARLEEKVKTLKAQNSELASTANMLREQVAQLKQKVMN; partner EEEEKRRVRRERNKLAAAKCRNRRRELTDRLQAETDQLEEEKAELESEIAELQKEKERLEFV
| Substitution | binding fitness [natural log] |
| --- | --- |
| A49K | -0.218 |
| E33R | -0.181 |
| T48K | -0.00139 |
| E44Q | -0.0614 |
| A49C | -0.239 |
| Q41T | -0.144 |
| L31E | -0.44 |
| E32I | -0.438 |
| A49T | -0.785 |
| K34V | -0.352 |

Mixed results
B1: ARF17 (Arabidopsis thaliana, UniProt Q84WU6); chain MSPPSATAGDINHREVDPTIWRACAGASVQIPVLHSRVYYFPQGHVEHCCPLLSTLPSSTSPVPCIITSIQLLADPVTDEVFAHLILQPMTQQQFTPTNYSRFGRFDGDVDDNNKVTTFAKILTPSDANNGGGFSVPRFCADSVFPLLNFQIDPPVQKLYVTDIHGAVWDFRHIYRGTPRRHLLTTGWSKFVNSKKLIAGDSVVFMRKSADEMFIGVRRTPISSSDGGSSYYGGDEYNGYYSQSSVAKEDDGSPKKTFRRSGNGKLTAEAVTDAINRASQGLPFEVVFYPAAGWSEFVVRAEDVESSMSMYWTPGTRVKMAMETEDSSRITWFQGIVSSTYQETGPWRGSPWKQLQITWDEPEILQNVKRVNPWQVEIAAHATQLHTPFPPAKRLKYPQPGGGFLSGDDGEILYPQSGLSSAAAPDPSPSMFSYSTFPAGMQGARQYDFGSFNPTGFIGGNPPQLFTNNFLSPLPDLGKVSTEMMNFGSPPSDNLSPNSNTTNLSSGNDLVGNRGPLSKKVNSIQLFGKIITVEEHSESGPAESGLCEEDGSKESSDNETQLSLSHAPPSVPKHSNSNAGSSSQG
| Sequence | partner | test | setting | scale | measurement | value |
| --- | --- | --- | --- | --- | --- | --- |
| B1 (ARF17) | ARF19 948-1086 (Arabidopsis thaliana, UniProt Q8RYC8) | two-hybrid | weak activation fusion | reference: out of 4 tests, higher = firmer interaction | positive tests | 0 |

Repeated from above (sample 3):
| Oligonucleotide | E-score |
| --- | --- |
| AACCGGCT | 0.215 |
| GAGATATA | -0.00042 |
| TAATATAA | -0.00931 |
| CTTTCATA | -0.0471 |
| CGGTAAGC | 0.265 |
| CAGGTCAG | -0.194 |
| AGTCCATA | -0.0946 |
| ACAAGGTA | -0.084 |
| ACGGCTTA | 0.345 |
| CAGTTAAG | -0.107 |
| CGCCCACG | 0.3 |
| TCCAGGCA | -0.224 |
| GATAGGCA | -0.249 |
| CCGAGTCC | 0.178 |
| TAAGGAAA | -0.233 |
